Measurements pooled from the literature.
“And” joins repeats or separate records; there may be more than shown. Numbers after ± are the reported error.
CHRM3: Muscarinic acetylcholine receptor M3 (CHRM3, Homo sapiens, UniProt P20309)
UniProt P20309, sequence (whole entry, looked up): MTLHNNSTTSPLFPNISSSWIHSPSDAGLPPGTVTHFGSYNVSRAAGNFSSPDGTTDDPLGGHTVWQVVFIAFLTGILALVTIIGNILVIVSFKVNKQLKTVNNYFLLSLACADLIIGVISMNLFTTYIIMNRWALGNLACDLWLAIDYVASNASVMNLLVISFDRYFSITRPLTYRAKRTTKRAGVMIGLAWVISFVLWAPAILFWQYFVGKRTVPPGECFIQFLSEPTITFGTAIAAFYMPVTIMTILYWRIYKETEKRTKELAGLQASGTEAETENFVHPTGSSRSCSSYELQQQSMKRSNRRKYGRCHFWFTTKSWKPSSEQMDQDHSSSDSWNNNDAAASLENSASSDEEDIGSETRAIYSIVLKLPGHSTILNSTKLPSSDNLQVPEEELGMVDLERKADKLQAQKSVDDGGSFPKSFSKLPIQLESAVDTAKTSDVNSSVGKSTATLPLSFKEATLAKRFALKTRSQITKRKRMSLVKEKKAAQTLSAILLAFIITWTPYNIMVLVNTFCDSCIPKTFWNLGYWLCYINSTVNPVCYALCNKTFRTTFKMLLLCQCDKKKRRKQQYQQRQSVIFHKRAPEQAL
TDP1: Tyrosyl-DNA phosphodiesterase 1 (TDP1, Homo sapiens, UniProt Q9NUW8)
UniProt Q9NUW8, sequence (whole entry, looked up): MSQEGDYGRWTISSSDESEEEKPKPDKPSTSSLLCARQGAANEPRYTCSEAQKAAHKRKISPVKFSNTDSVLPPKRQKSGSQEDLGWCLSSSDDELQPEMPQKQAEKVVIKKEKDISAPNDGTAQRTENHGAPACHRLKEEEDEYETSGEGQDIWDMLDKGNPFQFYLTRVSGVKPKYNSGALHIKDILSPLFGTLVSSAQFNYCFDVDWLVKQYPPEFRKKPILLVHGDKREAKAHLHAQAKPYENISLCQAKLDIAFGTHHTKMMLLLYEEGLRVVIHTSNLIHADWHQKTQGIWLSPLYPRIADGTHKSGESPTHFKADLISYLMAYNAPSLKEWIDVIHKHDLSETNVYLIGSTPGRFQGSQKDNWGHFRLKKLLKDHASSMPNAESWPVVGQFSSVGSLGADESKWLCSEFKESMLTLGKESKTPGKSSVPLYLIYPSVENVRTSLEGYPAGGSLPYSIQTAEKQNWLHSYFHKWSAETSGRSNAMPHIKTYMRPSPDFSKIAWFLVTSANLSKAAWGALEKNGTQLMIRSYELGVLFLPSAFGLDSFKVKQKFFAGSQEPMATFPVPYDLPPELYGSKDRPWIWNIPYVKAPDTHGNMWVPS

Compound | target | test | system | conditions | how to read | quantity | result
COCC(=O)N1CCc2cc(-c3csc(NC(=O)c4cc(OC)cc(OC)c4)n3)ccc21 | CHRM3 | cell-free assay |  | 10 µM |  | inhibition | 0%
C[Si](C)(C)C[C@@H](CN)CC(=O)O | CHRM3 | ligand displacement, radioligand |  | 75 µM |  | inhibition | 3%
Cn1ccc2cc(-n3c(=O)[nH]c4sc5c(c4c3=O)CCCC5)ccc21 | CHRM3 | cell-free assay, radioligand |  | 10 µM |  | inhibition | -12%
Brc1ccccc1-c1nnc(CSc2nnnn2-c2ccccc2)o1 | CHRM3 | ligand displacement, radioligand |  | 10 µM |  | inhibition | 13%
CCCCCCOc1ccc(C(=O)OCC[N+]2(C)CC=CCC2)cc1 (centres unmarked) | CHRM3 |  | membranes | 10 µM, 15 h, no carbachol | baseline: control | basal binding | 0.79 ± 0.05 fold
O=C(CCNC(=O)CNC(=O)CC(c1ccccc1)(c1ccccc1)c1ccccc1)NC[C@@H]1CCCN(Cc2ccc(F)cc2)C1 | CHRM3 | [3H]N-methylscopolamine binding |  |  | baseline: IC50 M2 over M3 | selectivity ratio | 85 and > 45
C=CCn1c(=O)c2ccccc2n2c(SCC(=O)OC)nnc12 | CHRM3 | agonist |  | 16 h, together with: [3H]NMS |  | maximal stimulation | 141 ± 16%
COc1ncc2nc(C)n(Cc3ncc(S(N)(=O)=O)cc3F)c2c1-c1ccccc1 | CHRM3 | agonist, cell-based |  | 10 µM |  | activation | -0.209%
CCCCOc1ccc(C(=O)OCC[N+]2(C)CC=CCC2)cc1 (centres unmarked) | CHRM3 |  | membranes | 1 µM, 15 h, together with: carbachol | baseline: control | Emax | 1.4 ± 0.1 fold
O=C(O)c1ccc(Nc2c(-c3ccc(CON=Cc4cc(-c5ccccc5)no4)cc3)nc3cc(-c4ccccc4)ccn23)cc1 | TDP1 | enzyme activity, inhibitor |  | 100 µM |  | inhibition | 94.5%
C=CCn1c(=O)c2ccccc2n2c(SC3CCOC3=O)nnc12 (centres unmarked) | CHRM3 | agonist |  | 16 h, together with: [3H]NMS |  | maximal stimulation | 125 ± 9%
O=C(CCNC(=O)CNC(=O)CC(c1ccccc1)(c1ccccc1)c1ccccc1)NC[C@@H]1CCCN(Cc2ccc3cc(F)ccc3c2)C1 | CHRM3 | [3H]N-methylscopolamine binding |  |  | baseline: IC50 M2 over M3 | selectivity ratio | 11.1
COc1ccc(C(=O)Nc2c(-c3cccs3)nc3ccccn23)cc1 | CHRM3 | ligand displacement, radioligand |  | 10 µM |  | inhibition | < 50%
O=C(O)c1ccc(Nc2c(-c3ccccc3)nc3ccc(CON=Cc4c(C=Cc5ccoc5)oc5ccc(O)cc45)cn23)cc1 (mixture of isomers) | TDP1 | enzyme activity, inhibitor |  | 100 µM, unpurified compound |  | inhibition | 47.9%
CCCCOc1ccc(C(=O)OCCN2CC=CCC2)cc1 | CHRM3 |  | membranes | 100 µM, 15 h, together with: carbachol | baseline: control | Emax | 1.48 ± 0.09 fold
COc1ccc(C#CC2=C[C@H]3C[C@@]4(OC(=O)C=C24)[C@H]2CC[C@H](C(OC)OC)N32)cc1 | CHRM3 | ligand displacement, radioligand |  | 10 µM |  | inhibition | -3%
C[Si]1(C[C@H](CN)CC(=O)O)CCCC1 | CHRM3 | ligand displacement, radioligand |  | 70 µM |  | inhibition | 11%
O=C1c2sc(-c3ccc(N4CCC(CO)CC4)nc3F)nc2CCN1c1cccnc1 | CHRM3 | ligand displacement, radioligand |  | 1 µM |  | inhibition | -5%
C=CCn1c(=O)c2ccccc2n2c(SCC(=O)NC3CC3)nnc12 | CHRM3 | agonist |  | 16 h, together with: [3H]NMS |  | maximal stimulation | 128 ± 3%
CCCCCCOc1ccc(C(=O)OCCN2CC=CCC2)cc1 | CHRM3 |  | membranes | 10 µM, 15 h, no carbachol | baseline: control | basal binding | 0.92 ± 0.03 fold
